{"data": "Assay results of several laboratories", "note": "Protocols differ between the studies behind these lines."}
{"SMILES": "Cc1cc(-c2nccc3c2ccn3CC(=O)Nc2ccc(-c3cnccn3)cn2)ccn1", "test system": "human", "conditions": "SAD part, single 40 mg dose", "quantity": "subjects with Nausea TEAEs", "value": "16.7%"}
{"SMILES": "CN1CCN(c2cccc3c2CCN(C(=O)/C=C/c2c(-n4cnnn4)ccc(Cl)c2F)[C@@H]3C(=O)Nc2ccc(C(=O)O)cc2)C(=O)C1", "test system": "healthy human subjects", "conditions": "intravenous infusion, 9 mg/h, 5 days", "quantity": "subjects with serious adverse event", "value": "0%"}
{"SMILES": "CC(C)(C(=O)N1CCOc2c(C#N)cncc2C1)C(F)F", "test": "item: blood creatine phosphokinase increased", "test system": "healthy humans, both sexes", "conditions": "oral, 40 mg single dose", "quantity": "subjects with TEAE", "value": "0%"}
{"SMILES": "C[C@@H](Oc1ccc(S(C)(=O)=O)cc1C(=O)N1C[C@@H]2C[C@]2(c2cc(C(F)(F)F)on2)C1)C(F)(F)F", "test system": "human", "conditions": "oral plus intravenous microtracer, dose not given", "quantity": "subjects with related GI disorders", "value": "0%"}
{"SMILES": "Cc1cc(Nc2cc3ncccc3c(N[C@@H]3C[C@H]4CC[C@@H](C3)N4CCC#N)n2)n[nH]1", "test system": "healthy human", "conditions": "oral, 10 mg single dose, 2 weeks", "quantity": "subjects with contact dermatitis", "value": "0%"}
{"SMILES": "C[C@H]1CN(C(=O)CC#N)[C@]12CCN(c1ncnc3[nH]ccc13)C2", "test system": "healthy human", "conditions": "oral, 6 mg single", "quantity": "subjects with Nausea", "value": "12.5%"}
{"SMILES": "CC(C)n1c(Nc2cccnc2)nc2cnc(Nc3ccc(N4CCN(C)CC4)cc3)nc21", "test": "item: diastolic blood pressure increased", "test system": "healthy human, male", "conditions": "oral, dose not given, CTCAE grade 1-3", "quantity": "subjects with TEAE", "value": "4.8%"}
{"SMILES": "CNC(=O)c1ccc(-c2cnc3ncc(Cc4ccc5ncccc5c4)n3n2)cc1F", "test system": "healthy human subjects", "conditions": "oral, 200 mg, Diarrhea, all grades, all causality, together with: itraconazole 200 mg/day", "quantity": "subjects with adverse event", "value": "11.1%"}
{"note": "Some of these lines once more:"}
{"SMILES": "CC(C)n1c(Nc2cccnc2)nc2cnc(Nc3ccc(N4CCN(C)CC4)cc3)nc21", "test": "item: diastolic blood pressure increased", "test system": "healthy human, male", "conditions": "oral, dose not given, CTCAE grade 1-3", "quantity": "subjects with TEAE", "value": "4.8%"}
